Assay results pooled from the literature.
Lines come from different studies, so protocols differ.

| SMILES | assay | system | setting | how to read | quantity | value |
| --- | --- | --- | --- | --- | --- | --- |
| CC(=O)O[C@H]1C(=O)[C@@]2(C)[C@H]([C@H](OC(=O)c3ccccc3)[C@]3(O)C[C@H](OC(=O)[C@H](O)[C@@H](NC(=O)c4ccccc4)c4ccccc4)C(C)=C1C3(C)C)[C@]1(OC(C)=O)CO[C@@H]1C[C@@H]2O | in situ brain perfusion | rat | no efflux inhibition |  | log intrinsic permeability | -6.63 |
| CC(=O)N[C@H](CSSC[C@H](N)C(=O)O)C(=O)N[C@H](C)C(=O)N[C@H](CCCNC(=N)N)C(=O)N[C@H](CCCNC(=N)N)C(=O)N[C@H](CCCNC(=N)N)C(=O)N[C@H](C)C(=O)N[C@H](CCCNC(=N)N)C(N)=O |  | human whole blood | 5 µM, 3 h, 37 °C | reference: products | SAPC conjugate share | ~60% |
| Cn1c(-c2ccc(C(N)=O)cc2F)nnc1C(C)(C)Oc1c(F)cc(Cl)cc1F |  | young non-Japanese humans, plasma | oral, 2 mg, day 1, single dose |  | median half-life | 93 h |
| O=C(c1cccnc1-c1ccncc1)N1CCC(O)(Cc2ccccc2)CC1 |  | healthy human, plasma | oral, 300 mg once daily, day 14, arithmetic mean |  | AUCinf | 2840 ng·h/mL |
| O=C(Cc1cccc(OC(F)(F)F)c1)Nc1ccc(CCCCc2nnc(NC(=O)Cc3ccccn3)s2)nn1 |  | human patients, plasma | oral, 600 mg three times daily fasted, cycle 1 day 15 steady state |  | AUC(0-8h) | 5160 ng·h/mL |
| CC[C@H](C)[C@H](NC(=O)[C@H](C)NC(=O)[C@H](CCC(=O)O)NC(=O)[C@H](CCCCNC(=O)c1ccc2c(c1)C1(OC2=O)c2ccc(O)cc2Oc2cc(O)ccc21)NC(=O)CCOCCOCCOCCNC(=O)CCOCCOCCOCCNC(=O)[C@@H]1CSCC(=O)N[C@@H](Cc2c[nH]c3ccccc23)C(=O)N2CCC[C@@H]2C(=O)NCC(=O)N[C@@H](CCCNC(=N)N)C(=O)N1)C(=O)N[C@@H](Cc1ccc(O)cc1)C(=O)N[C@@H](C)C(=O)N[C@@H](C)C(=O)N1CCC[C@H]1C(=O)N[C@@H](Cc1ccccc1)C(=O)N[C@@H](C)C(=O)N[C@@H](CCCCN)C(=O)N[C@@H](CCCCN)C(=O)N[C@@H](CCCCN)C(N)=O |  | Baf/BCR-ABL cell lysate | 2 µM, 37 °C |  | initial degradation rate | 1.1 pmol/mg/s |
| C1CCC(C(CC2CCCCN2)C2CCCCC2)CC1 (stereo not shown) | cytochrome c release, ELISA | BALB/cByJ female mouse liver mitochondria | 30 min | reference: alamethicin maximal release | EC20 | < 25 µM |
| CS(=O)(=O)n1cc2c(n1)CN([C@H]1CO[C@H](c3cc(F)ccc3F)[C@@H](N)C1)C2 |  | healthy Japanese men, plasma | oral, 10 mg once weekly, day 15 |  | Ctrough | 10.1 nM |
| O=C(O)c1cccc(O)c1 |  | human, fasted baseline, cerebrospinal fluid |  |  | median concentration | 304 nM |
| CC[C@H](C)[C@H](NC(=O)[C@H](C)NC(=O)[C@H](CCCNC(=N)N)NC(=O)[C@H](CCCNC(=N)N)NC(=O)[C@H](CC(N)=O)NC(=O)[C@H](CCCNC(=N)N)NC(=O)[C@H](CCCNC(=N)N)NC(=O)[C@H](C)NC(=O)[C@@H](NC(=O)[C@H](CO)NC(=O)[C@@H](NC(=O)[C@@H](NC(=O)[C@H](CS)NC(=O)[C@H](CCCCN)NC(=O)[C@@H](N)CCCNC(=N)N)C(C)C)[C@@H](C)CC)C(C)C)C(=O)N[C@@H](CCCCN)C(=O)N[C@H](C(=O)N[C@@H](CC(C)C)C(=O)N[C@@H](CS)C(=O)N[C@@H](CC(N)=O)C(=O)O)[C@@H](C)CC | LC-MS | PBS | 0.1 mg/mL |  | single disulfide form | 88% |
| CC1=C(/C=C/C(C)=C/C=C/C(C)=C/C(=O)Nc2ccc(O)cc2)C(C)(C)CCC1 | substrate, measured: 4-oxo metabolite formation | pooled human liver microsomes | 60 min |  | Km | 23.9 µM |
| CC1=C(COc2ccc(C(=O)O)cc2)C(=O)c2ccccc2C1=O | cyclic voltammetry | DMSO | first wave, vs Ag/AgCl |  | cathodic peak potential | -0.628 V |
| NC12CC3CC(CC(C3)C1)C2 | mitochondrial swelling | BALB/cByJ female mouse liver mitochondria | 30 min, added: succinate + rotenone | reference: CaCl2 maximal swelling | EC20 | > 800 µM |
| C[C@]12CC[C@@H]3c4ccc(O)cc4CC[C@H]3[C@@H]1C[C@@H](O)[C@@H]2O | GC-MS | breast cancer women on NSAI, serum | vaginal, 0.03 mg daily, 24 h, day 28 |  | maximum serum concentration | 0 ng/mL |
| C[C@@H]1C[C@H]2[C@@H]3CCC4=CC(=O)C=C[C@]4(C)[C@@]3(F)[C@@H](O)C[C@]2(C)[C@@]1(O)C(=O)CO | mitochondrial swelling | BALB/cByJ female mouse liver mitochondria | 30 min, added: succinate + rotenone | reference: CaCl2 maximal swelling | EC20 | > 200 µM |
| Cn1c(=O)[nH]c2[nH]c(=O)n(C)c2c1=O |  | human hemodialysis patients, plasma ultrafiltrate | pre-treatment | reference: hemodialysis over normal subjects | free concentration ratio | 8 |

Excerpt of the above:
| SMILES | assay | system | setting | how to read | quantity | value |
| --- | --- | --- | --- | --- | --- | --- |
| CC1=C(COc2ccc(C(=O)O)cc2)C(=O)c2ccccc2C1=O | cyclic voltammetry | DMSO | first wave, vs Ag/AgCl |  | cathodic peak potential | -0.628 V |
